Experimental data of several laboratories.
Protocols differ between the studies behind these lines. “And” joins repeats or separate records; there may be more than shown. ± gives the spread as reported.

The Cmax of Cl.[2H]C([2H])([2H])CC(=O)c1cnc(NC(=O)C2CC2)cc1Nc1cccc(-c2ncn(C([2H])([2H])[2H])n2)c1OC is reported as 949 ng/mL (geometric mean; human; oral, 100 mg single dose, fasted, liquid).
CO[C@@H]1[C@H](N(C)C(=O)c2ccccc2)C[C@H]2O[C@]1(C)n1c3ccccc3c3c4c(c5c6ccccc6n2c5c31)C(=O)NC4 has a Cmax of 1990 ng/mL (human patients, induction therapy, plasma; oral, 50 mg twice daily, day 21, mean, with micafungin).
With CO[C@]1(C(=O)N[C@@H](C)c2ccc(-n3cc(F)cn3)nc2)CC[C@H](c2nc(C)cc(Nc3cc(C)[nH]n3)n2)CC1 the Cmax was 594 ng/mL (human, plasma; oral, 200 mg, geometric mean).
The Cmax of CC(C)n1nc(-c2ccc3oc(N)nc3c2)c2c(N)ncnc21 is reported as 23.9 ng/mL (human, plasma; oral, 2 mg once daily, cycle 1 day 1).
The Cmax of C=CC(=O)N(C)CCOc1c(N)ncnc1-c1cc(F)cc(NC(=O)c2ccc(C3CC3)cc2F)c1C is reported as 245 ng/mL (human, whole blood; oral, 200 mg, single ascending dose, fasted).
With COC(=O)N[C@H](C(=O)N1CCC[C@H]1c1nc2cc([C@H]3CC[C@H](c4cc5nc([C@@H]6CCCN6C(=O)[C@@H](NC(=O)OC)[C@@H](C)OC)[nH]c5cc4F)N3c3cc(F)c(N4CCC(c5ccc(F)cc5)CC4)c(F)c3)c(F)cc2[nH]1)[C@@H](C)OC the Cmax was 160 ng/mL (healthy human subjects, plasma; oral, dose not given, added: carbamazepine twice daily).
For CN[C@@H](C)C(=O)N[C@H]1CN(S(=O)(=O)c2cccc(S(=O)(=O)N3CC[C@H]4CC[C@@H](C(=O)NC(c5ccccc5)c5ccccc5)N4C(=O)[C@@H](NC(=O)[C@H](C)NC)C3)c2)CC[C@H]2CC[C@@H](C(=O)NC(c3ccccc3)c3ccccc3)N2C1=O, the Cmax was 1400 ± 513 ng/mL (LC-MS/MS, noncompartmental; human, plasma; 30 mg, cycle 1 day 1).
The Cmax of CNC(=O)c1cc(Oc2ccc(NC(=O)Nc3ccc(Cl)c(C(F)(F)F)c3)cc2)ccn1 is reported as 9760 ng/mL (human patients, plasma; oral, 400 mg twice daily, steady state, geometric mean, added: rifampin 600 mg oral).
The Cmax of Cn1cncc1[C@@](N)(c1ccc(Cl)cc1)c1ccc2c(c1)c(-c1cccc(Cl)c1)cc(=O)n2C is reported as 1470 ng/mL (human patients; oral, 300 mg/m2, first dose, cycle 1, expanded cohort, median).
C[C@H](O)c1cc(C(=O)N[C@@H](C)Cn2ccc(-c3ccc(C#N)c(Cl)c3)n2)n[nH]1 has a Cmax of 2490 ng/mL (human, fasted, plasma; oral, 300 mg 14C-darolutamide solution, geometric mean).
COCCOc1cnc2ccn([C@H](C)c3nnc4c(F)cc(-c5cnn(C)c5)cn34)c(=O)c2c1 gave a Cmax of 5760 ng/mL (human patients, expansion, plasma; oral, 300 mg once daily, day 1).
The Cmax of COc1ccc2[nH]c([S@+]([O-])Cc3ncc(C)c(OC)c3C)nc2c1 is reported as 415 nM (human male, dried plasma spots; oral, 5 mg racemic omeprazole, added: fluvoxamine and voriconazole).
The Cmax of COc1ccc([C@@H](O)c2cc(-c3ncnc4cc(N5CCOCC5)ccc34)c(F)cc2Cl)nn1 is reported as 1030 ng/mL (LC-MS; human; oral, 200 mg twice daily, single dose).
For CCCCCCCOc1ccc(CCC(N)(CO)CO)cc1C(F)(F)F.Cl, the Cmax was 0.247 ng/mL (healthy human, male, plasma; 0.5 mg, multiple doses, day 1).
Cc1cc(Nc2cc3ncccc3c(N[C@@H]3C[C@H]4CC[C@@H](C3)N4CCC#N)n2)n[nH]1 gave a Cmax of 4.44 ng/mL (human, plasma; 100 mg single dose, mean).
NC[C@@]1(CC(=O)O)[C@@H]2CC[C@H]3C[C@@H]2[C@@H]1C3 gave a Cmax of 360 ng/mL (human, normal renal function, plasma; oral, 20 mg single dose, geometric mean).
For N#CCC1CCN(c2nc(Nc3ccc(N4CCC(O)CC4)cc3)c3c(=O)[nH]ncc3n2)CC1, the Cmax was 67.8 ng/mL (human, plasma; oral, 20 mg once daily, day 1).
With Cc1cc(-c2nccc3c2ccn3CC(=O)Nc2ccc(-c3cnccn3)cn2)ccn1 the Cmax was 321 nM (human, plasma; oral, 20 mg once daily, day 16, geometric mean).
CCNCCCNC/C=C\CNCCCNCC gave a Cmax of 512 ng/mL (LC-MS/MS; human cancer patients, plasma; intravenous infusion 60 min, 150 mg, median, cycle 1).
The Cmax of Cn1cncc1[C@@](N)(c1ccc(Cl)cc1)c1ccc2c(c1)c(-c1cccc(Cl)c1)cc(=O)n2C is reported as 76.1 ng/mL (human, plasma; oral, dose not given, added: ranitidine).
For Cc1cc(C)c(CNC(=O)c2cc(Cl)c3c(c2C)O[C@@](C)([C@H]2CC[C@H](N(C)C)CC2)O3)c(=O)[nH]1, the Cmax was 1930 ng/mL (human, NHL patients, plasma; oral, 200 mg/day, cycle 1 day 1, once daily).
C=CC(=O)N1CCC[C@@H](n2c(=O)n(-c3ccc(Oc4ccccc4)cc3)c3c(N)nccc32)C1 has a Cmax of 77.1 ng/mL (human, fed, plasma; oral, 240 mg, geometric mean).
For N#CCNC(=O)c1ccc(-c2ccnc(Nc3ccc(N4CCOCC4)cc3)n2)cc1, the Cmax was 487 ng/mL (healthy human volunteers, plasma; oral, dose not given, day 12, without rifampin).
With C[C@H](CCC(=O)NCCS(=O)(=O)O)[C@H]1CC[C@H]2[C@@H]3[C@H](O)C[C@@H]4C[C@H](O)CC[C@]4(C)[C@H]3C[C@H](O)[C@]12C the Cmax was 33.4 ± 3.6 nM (human, plasma; concentration not given, endogenous baseline diurnal).
For N[C@](CO)(CCc1ccc(Sc2cccc(OCc3ccccc3)c2)cc1Cl)COP(=O)(O)O, the Cmax was 1.28 ng/mL (human, fed, whole blood; 3 mg, geometric mean, alone).
For CN1CC[C@@H](c2c(O)cc(O)c3c(=O)cc(-c4ccc(C(F)(F)F)cc4Cl)oc23)[C@@H]1CO, the Cmax was 153 ng/mL (noncompartmental; human patients, plasma; oral, 100 mg continuous, cycle 1, after day 1).
Cc1cn(C(=O)c2c(-c3c(Cl)cc(Cl)cc3Cl)noc2C(C)(C)F)c2cccc(/C=C/C(=O)O)c12 gave a Cmax of 46300 ng/mL (human patients; 1400 mg bid, cycle 8 day 1).
With COc1cc2ncnc(Nc3ccc(F)c(Cl)c3)c2cc1NC(=O)/C=C/CN1CCCCC1 the Cmax was 12 ng/mL (human, mild hepatic impairment (NCI), plasma; single dose, geometric mean, total drug).
For C[C@H](CCC(=O)NCC(=O)O)[C@H]1CC[C@H]2[C@@H]3[C@H](O)C[C@@H]4C[C@H](O)CC[C@]4(C)[C@H]3CC[C@]12C, the Cmax was 1410 ± 235 nM (human, plasma; concentration not given, endogenous baseline diurnal).
The Cmax of Cn1nnc2c(C(N)=O)ncn2c1=O is reported as 1610 ng/mL (human patients, plasma; oral, 30 mg/m2, day 5, dose level DL4, median, added: talazoparib 600 µg/m2).
CCN(CC)CCNC(=O)c1c(C)[nH]c(/C=C2\C(=O)Nc3ccc(F)cc32)c1C gave a Cmax of 21.8 ng/mL (human, normal hepatic function (NCI), plasma; single dose, geometric mean, total drug).
With CCn1cc(C(=O)N2CCOCC2)c(=O)c2cc(NC3Cc4ccccc4C3)cnc21 the Cmax was 2640 ng/mL (human, fed; oral suspension, 1200 mg single dose, arithmetic mean).
The Cmax of O=C(O)C[C@H](O)C[C@H](O)/C=C/c1c(C2CC2)nc2ccccc2c1-c1ccc(F)cc1 is reported as 751 nM (OATP1B1/1B3 humanized mouse, plasma; oral, 5 mg/kg, added: rifampin 20 mg/kg oral).
For Cc1cc(-c2nnc(N)nc2-c2ccc(F)cc2)cc(Cl)n1, the Cmax was 1110 ng/mL (human patients, plasma; oral, 200 mg capsule once daily, multiple doses, arithmetic mean).
The Cmax of NCCCS(=O)(=O)O is reported as 1190 ng/mL (human, plasma; oral, 256.5 mg twice daily, day 7, capsule, fasted, dosed days 2-7).
CCN(CCO)CCCC(C)Nc1ccnc2cc(Cl)ccc12 (stereo not drawn) has a Cmax of 932 ng/mL and 578 ng/mL (human patient, whole blood; oral, 200 mg, steady state).
Cc1noc(C)c1-c1cc(C(O)(c2ccccn2)c2ccccn2)c2nc(C3CC3)[nH]c2c1 gave a Cmax of 296 ng/mL (human patients, plasma; oral, 3 mg, cycle 1 day 8, monotherapy).
For N[C@@H]1c2cccnc2[C@H](OC(=O)N2CCC(n3c(=O)[nH]c4ncccc43)CC2)CC[C@H]1c1cccc(F)c1F, the Cmax was 953 ng/mL (human, plasma; oral, dose not given, single dose, geometric LS mean, added: fluconazole).
With Cc1ccc(C(=O)N(CCCN)C(c2nc3snc(C)c3c(=O)n2Cc2ccccc2)C(C)C)cc1 (stereo not drawn) the Cmax was 123 ng/mL (human patients, plasma; intravenous, 10 mg/day, day 3 of induction course, geometric mean).
The Cmax of CO[C@@H]1[C@H](OC(=O)N2CC(CCN3CCOCC3)C2)CC[C@]2(CO2)[C@H]1[C@@]1(C)O[C@@H]1CC=C(C)C is reported as 10.4 ± 6 ng/mL (humans, plasma; subcutaneous, 1.8 mg twice weekly, fifth dose).
CCO has a Cmax of 743000 ± 113000 ng/mL (gas chromatography; human, plasma; 0.5 g/kg, alone, with placebo tablets).
CC(C)CCC[C@@H](C)[C@H]1CC[C@H]2[C@@H]3C(O)CC4=CC(=O)CC[C@]4(C)[C@H]3CC[C@]12C (stereo partly drawn) has a Cmax of 115 ± 20 nM (human, plasma; concentration not given, endogenous baseline diurnal).
The Cmax of CN(C)C(=O)c1cc2cnc(Nc3ccc(N4CCNCC4)cn3)nc2n1C1CCCC1 is reported as 356 ng/mL (human, normal renal function, plasma; oral, 400 mg, single dose, adjusted geometric mean).
For C#C[C@]1(CO)O[C@@H](n2cnc3c(N)nc(F)nc32)C[C@@H]1O, the Cmax was 9760 nM (human, plasma; oral, 400 mg, single dose, geometric mean).
Cc1cc(C)c(CNC(=O)c2cc(Cl)c3c(c2C)O[C@@](C)([C@H]2CC[C@H](N(C)C)CC2)O3)c(=O)[nH]1 gave a Cmax of 336 ng/mL (mean; healthy male humans, plasma; oral, 25 mg, day 11, added: itraconazole).
With NC(=O)c1[nH]cnc1N the Cmax was 6530 ng/mL (human patients, plasma; IV infusion over 1 h, 1000 mg/m^2 DTIC, cycle 2 day 1, staggered with co-drug).
The Cmax of COc1nnc2ccc(N3CCC(c4ccc(OCCN5CCN(C)C(=O)[C@H]5C)cc4)CC3)nn12 is reported as 272 nM (human, plasma; oral, 30 mg once daily, multiple dose, monotherapy).
Cc1nc(-c2ccc(OCC(C)C)c(C#N)c2)sc1C(=O)O gave a Cmax of 268 ng/mL (human; oral, 10 mg once daily, added: verinurad 0 mg).
With Cc1nc(Nc2ncc(C(=O)Nc3c(C)cccc3Cl)s2)cc(N2CCN(CCO)CC2)n1 the Cmax was 124 ± 67 ng/mL (human patients; oral, 85 mg/m^2, day 42).
C[C@H]1CN(C(=O)CC#N)[C@]12CCN(c1ncnc3[nH]ccc13)C2 gave a Cmax of 51 ng/mL (healthy human, plasma; oral, 6 mg single, day 1, geometric mean).
Cc1cccc(F)c1N1CCC(N2Cc3cn(CC(C)(F)F)nc3N(Cc3ccccc3C(F)(F)F)C2=O)CC1 gave a Cmax of 1020 ng/mL (human healthy males, plasma; oral, 100 mg, single dose, fed, geometric mean).
For CC(C)(Sc1ccncc1-c1ccc(C#N)c2ccccc12)C(=O)O, the Cmax was 29.5 ng/mL (human, plasma; oral, 10 mg once daily, added: febuxostat 20 mg).
For Cc1ncnc2c1ccn2[C@@H]1C[C@H](Oc2cc(C(F)F)c(F)c3c2CNCC3)[C@@H](O)[C@H]1O, the Cmax was 59.8 ng/mL (human; 4 mg twice daily, multiple dose, geometric mean).
O=C(NCCN1CCCC1)c1cc(-c2ccc(CN3CCOCC3)cc2)nc2ccc(F)cc12 has a Cmax of 1140 ng/mL and 1560 ng/mL (human, whole blood; oral, 1250 mg).
CC(C)[C@@H]1CC[C@@H](C)C[C@H]1OC(=O)O[C@@H](C)OC(=O)[C@H]1[C@@H]2C[C@H](F)[C@@](N)(C(=O)O)[C@@H]21 gave a Cmax of 8.06 ng/mL (human, plasma; oral, 10 mg, fed, single dose).
With CN(CC#N)C(=O)C[C@H](Nc1nc2ccccc2[nH]1)c1cccc(C(F)(F)F)c1 the Cmax was 4640 ± 106 ng/mL (human; intravenous infusion, 2 mg/kg, 1 mg/mL formulation).
The Cmax of Cc1ccc([C@@H]2O[C@H](CO)[C@@H](O)[C@H](O)[C@H]2O)cc1Cc1ccc(-c2ccc(F)cc2)s1 is reported as 867 ng/mL (human, maintenance hemodialysis patients; oral, 100 mg once daily, steady state, median).
The Cmax of COC(=O)N[C@@H](C)CNc1nccc(-c2cn(C(C)C)nc2-c2cc(Cl)cc(NS(C)(=O)=O)c2F)n1 is reported as 932 ng/mL (human, plasma; oral, 50 mg, added: posaconazole 400 mg twice daily; geometric mean).
For N#C[C@H](C[C@@H]1CCCNC1=O)NC(=O)[C@H](CC1CC1)NC(=O)c1cc2cccc(Cl)c2[nH]1, the Cmax was 1870 ng/mL (human, plasma; 225 mg twice daily, day 1).
Cn1c(=O)oc2ccc(-c3ccc(C[C@@H](C#N)NC(=O)[C@@H]4CNCCCO4)cc3)cc21 has a Cmax of 141 ng/mL (human, severe renal impairment, plasma; oral, 25 mg single dose, mean).
